Measurements from different studies.
Parts stem from different laboratories: compare values within a part only.

Sample 1
Target: Ras GTPase-activating protein-binding protein 1, C-terminal RGG region (G3BP1, Homo sapiens, UniProt Q13283)
Sequence of UniProt Q13283 (whole entry, looked up): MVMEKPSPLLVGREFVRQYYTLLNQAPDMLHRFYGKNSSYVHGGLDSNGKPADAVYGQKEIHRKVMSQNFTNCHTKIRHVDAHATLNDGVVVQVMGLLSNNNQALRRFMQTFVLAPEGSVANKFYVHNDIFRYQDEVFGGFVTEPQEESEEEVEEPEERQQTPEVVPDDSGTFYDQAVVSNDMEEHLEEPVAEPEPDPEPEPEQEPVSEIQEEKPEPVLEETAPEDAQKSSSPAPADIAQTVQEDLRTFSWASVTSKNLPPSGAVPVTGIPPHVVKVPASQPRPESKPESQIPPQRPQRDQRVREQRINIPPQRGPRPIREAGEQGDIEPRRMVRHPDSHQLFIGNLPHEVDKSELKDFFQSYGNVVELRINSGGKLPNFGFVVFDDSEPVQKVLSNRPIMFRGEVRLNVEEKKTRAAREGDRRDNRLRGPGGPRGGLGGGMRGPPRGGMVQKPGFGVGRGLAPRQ
Method: RNA Bind-n-Seq
Form: RNA
Medium: in vitro
Tested at: 1 µM
Setting: whole 134-nt RNA, ends assumed
Together with: 150 mM KCl
Baseline: input library
Direction: higher = stronger binding
All sequences stand within: GGGAGUUCUACAGUCCGACGAUC … UGGAAUUCUCGGGUGUCAAGG
Oligonucleotide	log2 enrichment
UCAAGUCCUGUGCUACACAUCGUAUGUACCGAAUCGGGGAAGGGGAAGGGAAGGAAAGUAUUAUGUUACGCCGUUCGGAUCUGCACUUCC	-0.847
CCUGUGCUACACAUCGUAUGUACCGAAUCGGGGAAAAAAAGGAAAAAAAGGAAAAAAAGGAAAGUAUUAUGUUACGCCGUUCGGAUCUGC	-1.72
UAUUCCAAUGUCUGUGGGAAUAAUUGACACAAGGACGAAUCCAAGCCAGUUAAAUGCGGUUGAAUUUCUGUGGGACCCAGCAAAACGCAC	0.525
GUCCUGUGCUACACAUCGUAUGUACCGAAUCGGGUUUUUGGGUUUUUGGGGUUUUUGGAAAGUAUUAUGUUACGCCGUUCGGAUCUGCAC	-0.753
UUGACAUGAAGACAAUGGAGACUGCAGAGAAACUGGCUAGAUUUGUUGCUCAGGUGGGACCAGAGAUCGAACAAUUCAGCAUAGAAAACA	-1.44
UCCUGUGCUACACAUCGUAUGUACCGAAUCAAACCCAAACCCCCCCAAAUUUUUUUAAAAAAGUAUUAUGUUACGCCGUUCGGAUCUGCA	-0.62
UGCUGUUAUCUGGAACUCCUACCUGUCCUGGAAGGCACAUCGGCUCUAAGCCUGCCUCACUCCAUCGUUUCCACCUUGCAGUGAUGCAGC	-2
AAGUCCUGUGCUACACAUCGUAUGUACCGAAUCGGUUUUGGGUUUUGGUUUUGGGGAAAGUAUUAUGUUACGCCGUUCGGAUCUGCACUU	-1.5
CAAGUCCUGUGCUACACAUCGUAUGUACCGAAUCGGUUUUGGUUUUGGGUUUUGGAAAGUAUUAUGUUACGCCGUUCGGAUCUGCACUUC	-1.49
GUCCUGUGCUACACAUCGUAUGUACCGAAUCGGGCCCCCGGGCCCCCGGGGCCCCCGGGAAAGUAUUAUGUUACGCCGUUCGGAUCUGCA	-2.14
CCUGUGCUACACAUCGUAUGUACCGAAUCGGAAAAAAAGGGAAAAAAAGGAAAAAAAGGGGAAAGUAUUAUGUUACGCCGUUCGGAUCUG	-1.81
ACCAUGCAGGUCGGCAUCUUUGGGAAGUGGGGCAAGGGGGGGAUAGGGAGGGGGGUAACACUUUGGGAACAGGUGGUCCCAGGUCGUUUC	-1.65
GCAGGAAGUAACAACAAAUGGAAAUGCUUCGGAUAGUGGCAGGGGUGGGGGUUGCUAAGGAAAGGGUGGGAUGGGAGUGGGUAAAGAGUU	1.85
AUUAAGGUCACCGUUGCAGGCCUGGCUGGAAAAGACCCAGUACAGUGUAGCCGUGAUGUGGUCAUUUGUCCUGAUGCCAGCCUUGAAGAU	-1.33

Sample 2
Target: RNA binding protein fox-1 homolog 2, RRM domain, GST-SBP tag (RBFOX2, Homo sapiens, UniProt O43251-10, residues 100-194)
Method: RNA Bind-n-Seq
Form: RNA
Medium: in vitro
Tested at: 365 nM
Setting: natural RNA segment, single round, ends assumed
Baseline: no-protein control
Direction: higher = stronger binding
All sequences stand within: GGGAGUUCUACAGUCCGACGAUC … UGGAAUUCUCGGGUGCCAA
Residues (chain): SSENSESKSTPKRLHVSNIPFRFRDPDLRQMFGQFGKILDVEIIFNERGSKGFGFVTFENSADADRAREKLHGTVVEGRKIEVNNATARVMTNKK
Oligonucleotide	RBNS enrichment (R)
UUUCUUGUGAUGGACGUGCACUACGAAGUGAGAUGGAGUCCUGCUCCGUGCAGGAGGCCCUUCAUUAUUGCUGCAGAAGACAGAAGCCUGGCUGAGUCACUCUCCACGUC	0.316
UACUUCUGUUCCAUGGUGUGCAGGUCUGCUUCUUAAUUCAGUGUUAUGAUAUCUUCCAGUUUUUGCUUUCAUAGGUCAGAGAUCUAUCUUGUGUGUGCGUUAGACUUGAU	0.503
CCCCCUGCCUGUCCCCAAAUUGAAGAUCCUUCCUUGCCUGUGGCUUGAUGCGGGGCGGGUAAAGGGUAUUUUAACUUAGGGGUAGUUCCUGCUGUGAGUGGUUACAGCUG	0.914
UUCACCUGCCCUUGGUGUGGACACACCCUCUCAUGCUACCAGCACCAUAAUCCAGUGGGGGUGACUGGGUGCACACCUGCCCAGGUGAACACAGCGGCUGCCAGUCUCCU	0.415
AUGGGAAAUUGAAGCAGGAAAUAUUGAGGGCUUCUUGAUCACAGAAAACUCAGAAGAGAUAGUAAUGCUCAGGACAGGAGCGGCAGCCCCAGAACAGGCCACUCAUUUAG	0.563
UGUUGUCACCCCAUGUGUUGUGUGUGACCUGUCCUCGUGUGCCCUUGGUGUCUGACUUCAGAGAGUCCUACAUGAACUCAGUAAUCCACAUCUCUCACACAGCUGAGAGU	0.261
UGCCACCUUGUACAAAGCCAGCUGACCAGCCCCCGCCUCCUCACCACACCCCAGCUCCUAUCUUCUGUACCCGAGUGUGUCUGAUGCUCCGUGCUGUCCAGGAAUUGUUU	1.38
GAGCCCUUAAAAAGACUUGAAAGUUCACUGGGACUCAGUUUACCUUAAUGCCUUAGCAGAAGAUAAAUCCUACCUAGAGACCUUUGUUCCUUAAAGCAAUAACUGACAAC	0.192
AACACAAGGCUCCAAGACCUAGGCUCAUGGACGAGAUGGGAAGGCACAGGGAGAAGGGAUAACCCUACACCCAGACCCCAGGCUGGACAUGCUGACUGUCCUCUCCCCUC	0.365
UCGGCUCUCCAAUUUAACUCUUUGGCAACAGGAAACAGGUUUUGCAAGUUCAAGGUUCACUCCCUAUAUGUGAUUAUAGGAAUUGUUUGUGGAAAUGGAUUAACAUACCC	0.436
CCCUUGUUCCAAAUGAAGACGGCAUCACGAAGCAGCUCCAAAAGGAAAAGCUUGGGCGGUGCCCAGCGUGCCCGCUGCCCAUCGACGUCUGUCCUGGGGACGUGGAGGGU	0.414
GAAUAUUUUUGUACCUGAUGUUUCCAGAUGUUGGGAAGUUAUCAAUAAAGACUGUUGUUAAAAGGGACACUUAUAGCAACAGUGGCUUGCUUCUGUUUUUGGGCCUCACA	1.33

Sample 3
Target: Centromere-binding protein 1, full length, N-terminal tag (CBF1, Saccharomyces cerevisiae, UniProt P17106, residues 1-351)
Sequence of UniProt P17106 (whole entry, looked up): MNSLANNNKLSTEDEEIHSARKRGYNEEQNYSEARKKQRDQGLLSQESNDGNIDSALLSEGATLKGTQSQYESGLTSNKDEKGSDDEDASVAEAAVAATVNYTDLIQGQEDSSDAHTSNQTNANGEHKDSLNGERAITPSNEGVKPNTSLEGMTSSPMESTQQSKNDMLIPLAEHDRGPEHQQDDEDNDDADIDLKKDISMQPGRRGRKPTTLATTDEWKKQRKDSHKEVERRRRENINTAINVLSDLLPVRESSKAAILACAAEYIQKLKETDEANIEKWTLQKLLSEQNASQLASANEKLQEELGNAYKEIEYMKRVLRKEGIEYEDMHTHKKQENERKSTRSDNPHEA
Method: protein-binding microarray
Form: double-stranded DNA, one strand shown
Medium: in vitro
Tested at: 0.8 µM
Setting: whole 60-bp probe, no competitor
Direction: higher = stronger binding
All sequences stand within: … GTCTTGATTCGCTTGACGCTGCTG
Oligonucleotide	fluorescence intensity [a.u.]
CTACGGCTGAAAATTTTCACCACGAGCAGTTTCTTC	594
GAAGATGCACAATGGCACATGCAGTTGGGTGCATAG	645
GAACATAATCTTGATAACGTGAAACAGTTTAACTAG	776
GAACGCGCCAGGCATGGCGTGAACCTAACCAATTAG	478
GAATAGAAGTAATGGTATGTCACGTATAAATAATAG	808
TGTACGAAGCTATACCACATGTGTATAGTAGTTAGG	752
GAAATCTCAACTCGTCACCACACAAAAAAATGGTAG	588
GAAATCCAATGCTGACAGCTGAGTATTGCAACATAG	508
GAATCGTTTTCGTGTGTGGTGACGATGTATTAGTAG	562
CTAGCAAGAACACGTCACCGCATTAATAACCAATTC	534
GAACTAGTATGTTGCCACCTGCAGAAATAAATATAG	585
GAATCGTTCTCATCTCATGTGAAAAACTATATCTAG	604
GAATTATTATTTTGTCACACGTCTCCCTTGAATTAG	678
GAAAGTTACAATTTTCTCATCACCCCGAAACAATAG	563
CTATTGAAAATGCAACACGTATACCTCCGGAGATTC	510
GAATGCATCACTATTCAGGAGATGTATAGGCCATAG	550

Sample 4
Target: RING finger protein unkempt homolog, zinc fingers 1-6, GST-SBP tag (UNK, Homo sapiens, UniProt Q9C0B0, residues 30-357)
Sequence of UniProt Q9C0B0 (30-357, looked up): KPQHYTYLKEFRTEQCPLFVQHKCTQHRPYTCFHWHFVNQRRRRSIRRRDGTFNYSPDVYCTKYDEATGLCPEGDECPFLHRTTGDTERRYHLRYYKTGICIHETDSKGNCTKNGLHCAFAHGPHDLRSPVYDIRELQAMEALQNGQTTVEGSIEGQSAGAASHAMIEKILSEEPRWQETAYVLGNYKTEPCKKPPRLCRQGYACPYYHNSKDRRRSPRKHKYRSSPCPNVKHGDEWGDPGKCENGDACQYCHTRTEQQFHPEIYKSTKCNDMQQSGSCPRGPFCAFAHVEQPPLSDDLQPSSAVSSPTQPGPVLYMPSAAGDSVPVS
Method: RNA Bind-n-Seq
Form: RNA
Medium: in vitro
Tested at: not given
Setting: RNA with constant flanks, human and mouse sites, ends assumed
Baseline: input RNA pool
Direction: higher = stronger binding
All sequences stand within: GGGAGUUCUACAGUCCGACGAUC … CAACAGAGGAUUGAGCAUCA
Oligonucleotide	bound/input enrichment [ratio]
CCAAAGCUGGCAGCACUUCUCCGUGUGUUCAGUACUGUGGUGAGGAGCAUUGGGGAACGCUUUAGCCCAAUUCGGGGUCCACCAAUUACAGAGGCAUACGUAACAGAUGUUCUAUACAGA	0.116
AGACAUGUCCUCACGUACAUGGAGGAUGCAGUGUGCCAGCUGCUGGAGAACAGGGAGGAUAUUAGCCAGUAUGGCAUUGCCCGGUUCUUCACUGACUAUUUUAACAGCGUAUGCCAAGGA	0.116
UGAGGAGACACGAAGGUGGUUCCCCAGCCGCUCAAAUUUCCGGACCACCGCGCUUUCCCCUCCUCAGCCUGGGCUGUGCUCUCUCUAGAAUCCUCGGGCCCCCACUUUCUUCCCAAACUC	0.658
AUGUGCAAGGAAAUUAUUCCAACUAGUGAAUUUAUUAACAGUAAGUUAACAGCAAAAGCAAAUAGGCAACUUCAAGAUCCUUUAGUAAUCAUGACAGGAAACAUCCCAACAUGGCUUACU	3.11
GCACCCCAGCUGCAGCCCAACCCUGAGCCCGAAGGAGACUCGGAUGACAGCACUGCCCUAGGCACCCUAGAAUUCACACUUCUCUUUGAUGAGGACAACAGCGCCCUGCACUGCACAGCC	0.56
AGCUGGGGUGAGCUGUGUCCUCCUCAUACCUCCAGGUGUGGCUCCACACAUCCCCAGGGGGUCGGUAUUAAGGCCUCGUGCUGACCUUUGCCCUAGUCCAUCUUCCUGACUCUCUGCCUC	0.184
GAGAUUGACUGCACCAUGCUCACCCCUGAGCCAGUUUUAAAGACCUCUGGCCACGUAGACAAAUUUGCUGACUUCAUGGUGAAGGACGUGAAGAACGGAGAGUGCUUCCGAGCAGACCAC	0.219
CUUCUGUUUGUAAGGAUGAUUUUAAUAUUAAUUCCAGGAACACAUGUUUUUAUUUCCUCUGCUGGAAUAGGAGAAAGCUUAAUAUAUUCCCAAGCUGAAUGUUCUUGAAUUAUAUCUGCA	0.242
UGUGUGCGUGCCCGAGUGUGCGCGCGCGGGUGUGUGGACUCGGAGGUGGGGGCAGCCGAGUUAGUCCCAAGUCGUCGGACUCCAUUUGCUAUUCUUUUCUUUCUCUCCCACACCCGUGUG	0.288
AGAAGCACACAGGCUGCCCCACAGGUUGUGCUGAAUGUCCCCGAGACACAAGUGACAUGUUUGGAAAAUGGACUCAGAGUAGCUUCUGAAAACUCUGGGCUCUCAACGUGCACAGUUGGG	0.132
UGGCAAGGGUUGUGUAAAUCUACAUGGGGUCACUGCUCUAUAUACAAUAAGAACCCACCUUUAGGAUUUUCUUUUAGAAAAUUGUAUAUGCAGCUAGAUGAGGGAAGCCUCACCUUUAAU	1.4

For quick reference, copied from above (sample 4):
Oligonucleotide	bound/input enrichment [ratio]
AUGUGCAAGGAAAUUAUUCCAACUAGUGAAUUUAUUAACAGUAAGUUAACAGCAAAAGCAAAUAGGCAACUUCAAGAUCCUUUAGUAAUCAUGACAGGAAACAUCCCAACAUGGCUUACU	3.11
GCACCCCAGCUGCAGCCCAACCCUGAGCCCGAAGGAGACUCGGAUGACAGCACUGCCCUAGGCACCCUAGAAUUCACACUUCUCUUUGAUGAGGACAACAGCGCCCUGCACUGCACAGCC	0.56
AGCUGGGGUGAGCUGUGUCCUCCUCAUACCUCCAGGUGUGGCUCCACACAUCCCCAGGGGGUCGGUAUUAAGGCCUCGUGCUGACCUUUGCCCUAGUCCAUCUUCCUGACUCUCUGCCUC	0.184
GAGAUUGACUGCACCAUGCUCACCCCUGAGCCAGUUUUAAAGACCUCUGGCCACGUAGACAAAUUUGCUGACUUCAUGGUGAAGGACGUGAAGAACGGAGAGUGCUUCCGAGCAGACCAC	0.219
CUUCUGUUUGUAAGGAUGAUUUUAAUAUUAAUUCCAGGAACACAUGUUUUUAUUUCCUCUGCUGGAAUAGGAGAAAGCUUAAUAUAUUCCCAAGCUGAAUGUUCUUGAAUUAUAUCUGCA	0.242
